Published values pooled from the literature.
Lines come from different studies, so protocols differ. Values joined by “and” are separate records of one study, mostly repeats; a detail may differ. ± marks the error that the study gave.
CDC7 with DBF4: Cell division cycle 7-related protein kinase, with DBF4 (CDC7, Homo sapiens, UniProt O00311)
CXCR4: C-X-C chemokine receptor type 4 (CXCR4, Homo sapiens, UniProt P61073)
CYP1A2: Cytochrome P450 1A2 (CYP1A2, Homo sapiens, UniProt P05177)
Sequence of UniProt P05177 (whole entry, looked up): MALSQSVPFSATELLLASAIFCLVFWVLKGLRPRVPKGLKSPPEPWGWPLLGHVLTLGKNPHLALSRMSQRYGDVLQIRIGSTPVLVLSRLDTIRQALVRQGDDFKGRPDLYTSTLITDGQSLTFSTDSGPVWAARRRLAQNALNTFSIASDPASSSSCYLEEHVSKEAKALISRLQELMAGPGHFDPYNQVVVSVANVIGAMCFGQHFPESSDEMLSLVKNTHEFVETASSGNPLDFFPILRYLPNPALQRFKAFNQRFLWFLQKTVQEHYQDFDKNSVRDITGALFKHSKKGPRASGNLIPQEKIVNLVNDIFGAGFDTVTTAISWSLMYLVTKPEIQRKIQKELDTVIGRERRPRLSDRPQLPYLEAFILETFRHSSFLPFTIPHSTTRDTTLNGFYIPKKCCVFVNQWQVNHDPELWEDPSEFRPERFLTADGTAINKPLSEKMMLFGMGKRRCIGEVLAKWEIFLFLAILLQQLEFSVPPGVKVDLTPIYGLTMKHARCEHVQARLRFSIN
GSK3B: Glycogen synthase kinase-3 beta (GSK3B, Homo sapiens, UniProt P49841)
Sequence of UniProt P49841 (whole entry, looked up): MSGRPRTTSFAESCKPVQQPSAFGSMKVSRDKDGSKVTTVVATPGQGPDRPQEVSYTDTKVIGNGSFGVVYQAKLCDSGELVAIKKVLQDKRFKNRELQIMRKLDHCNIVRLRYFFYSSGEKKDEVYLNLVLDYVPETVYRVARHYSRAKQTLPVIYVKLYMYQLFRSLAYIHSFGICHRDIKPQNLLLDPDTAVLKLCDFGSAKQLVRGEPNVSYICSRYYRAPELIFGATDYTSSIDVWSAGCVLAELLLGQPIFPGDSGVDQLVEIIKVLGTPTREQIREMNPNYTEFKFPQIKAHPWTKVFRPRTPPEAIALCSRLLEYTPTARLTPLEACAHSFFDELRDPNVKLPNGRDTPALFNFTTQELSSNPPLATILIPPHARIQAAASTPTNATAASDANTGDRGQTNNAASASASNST
PARP1: Poly [ADP-ribose] polymerase 1 (PARP1, Homo sapiens, UniProt P09874)
Sequence of UniProt P09874 (whole entry, looked up): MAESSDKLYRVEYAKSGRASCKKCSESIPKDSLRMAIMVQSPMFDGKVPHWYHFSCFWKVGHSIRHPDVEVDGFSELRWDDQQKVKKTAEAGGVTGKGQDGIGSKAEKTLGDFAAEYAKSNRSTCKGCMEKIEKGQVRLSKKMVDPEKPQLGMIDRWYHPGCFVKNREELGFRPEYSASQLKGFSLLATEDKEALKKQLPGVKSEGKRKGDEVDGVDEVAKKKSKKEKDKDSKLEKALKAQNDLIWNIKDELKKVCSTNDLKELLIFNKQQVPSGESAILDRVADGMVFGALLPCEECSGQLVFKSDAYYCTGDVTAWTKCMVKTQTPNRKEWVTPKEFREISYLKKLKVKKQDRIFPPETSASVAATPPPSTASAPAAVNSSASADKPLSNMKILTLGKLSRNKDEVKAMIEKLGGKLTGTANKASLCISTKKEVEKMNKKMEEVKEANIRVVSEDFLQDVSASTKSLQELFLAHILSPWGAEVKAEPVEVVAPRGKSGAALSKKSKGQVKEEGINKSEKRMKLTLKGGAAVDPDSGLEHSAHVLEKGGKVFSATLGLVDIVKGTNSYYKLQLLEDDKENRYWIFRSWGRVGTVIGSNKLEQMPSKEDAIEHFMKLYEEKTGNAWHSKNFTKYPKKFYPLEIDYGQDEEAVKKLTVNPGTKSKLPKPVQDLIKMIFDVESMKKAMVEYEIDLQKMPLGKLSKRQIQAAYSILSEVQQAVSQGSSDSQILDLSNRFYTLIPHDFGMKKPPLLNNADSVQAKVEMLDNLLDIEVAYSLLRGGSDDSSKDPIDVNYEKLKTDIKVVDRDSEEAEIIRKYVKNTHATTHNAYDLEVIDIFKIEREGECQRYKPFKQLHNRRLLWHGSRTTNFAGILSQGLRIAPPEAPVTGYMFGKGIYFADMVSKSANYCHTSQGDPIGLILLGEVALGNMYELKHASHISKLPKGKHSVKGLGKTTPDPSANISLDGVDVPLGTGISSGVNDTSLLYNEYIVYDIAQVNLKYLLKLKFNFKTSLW
FAAH: Fatty-acid amide hydrolase 1 (FAAH, Homo sapiens, UniProt O00519)
Sequence of UniProt O00519 (whole entry, looked up): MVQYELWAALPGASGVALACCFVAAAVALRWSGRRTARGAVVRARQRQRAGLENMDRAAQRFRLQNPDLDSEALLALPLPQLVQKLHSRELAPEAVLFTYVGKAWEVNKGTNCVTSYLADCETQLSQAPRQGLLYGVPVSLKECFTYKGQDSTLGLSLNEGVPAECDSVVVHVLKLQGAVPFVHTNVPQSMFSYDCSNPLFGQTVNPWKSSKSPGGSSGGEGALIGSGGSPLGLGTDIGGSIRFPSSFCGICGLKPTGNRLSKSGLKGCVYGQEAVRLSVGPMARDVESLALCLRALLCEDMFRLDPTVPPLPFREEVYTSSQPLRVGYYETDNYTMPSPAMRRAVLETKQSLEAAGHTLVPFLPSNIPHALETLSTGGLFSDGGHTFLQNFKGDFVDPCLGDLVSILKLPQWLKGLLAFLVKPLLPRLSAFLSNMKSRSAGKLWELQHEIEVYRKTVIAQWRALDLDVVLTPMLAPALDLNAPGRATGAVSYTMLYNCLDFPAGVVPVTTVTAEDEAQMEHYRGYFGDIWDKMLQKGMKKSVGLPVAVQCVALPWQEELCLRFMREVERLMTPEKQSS
LDHB: L-lactate dehydrogenase B chain (LDHB, Homo sapiens, UniProt P07195)
Sequence of UniProt P07195 (whole entry, looked up): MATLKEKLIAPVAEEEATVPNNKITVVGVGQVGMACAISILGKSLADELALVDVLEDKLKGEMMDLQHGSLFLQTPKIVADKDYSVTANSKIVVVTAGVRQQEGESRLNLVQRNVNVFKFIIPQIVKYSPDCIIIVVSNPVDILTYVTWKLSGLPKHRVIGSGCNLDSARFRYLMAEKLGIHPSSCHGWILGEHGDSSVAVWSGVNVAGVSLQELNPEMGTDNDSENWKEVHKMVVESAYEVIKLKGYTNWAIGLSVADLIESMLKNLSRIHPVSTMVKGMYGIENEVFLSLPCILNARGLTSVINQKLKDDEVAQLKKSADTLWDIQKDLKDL
SLC29A1: Equilibrative nucleoside transporter 1 (SLC29A1, Homo sapiens, UniProt Q99808)
Sequence of UniProt Q99808 (whole entry, looked up): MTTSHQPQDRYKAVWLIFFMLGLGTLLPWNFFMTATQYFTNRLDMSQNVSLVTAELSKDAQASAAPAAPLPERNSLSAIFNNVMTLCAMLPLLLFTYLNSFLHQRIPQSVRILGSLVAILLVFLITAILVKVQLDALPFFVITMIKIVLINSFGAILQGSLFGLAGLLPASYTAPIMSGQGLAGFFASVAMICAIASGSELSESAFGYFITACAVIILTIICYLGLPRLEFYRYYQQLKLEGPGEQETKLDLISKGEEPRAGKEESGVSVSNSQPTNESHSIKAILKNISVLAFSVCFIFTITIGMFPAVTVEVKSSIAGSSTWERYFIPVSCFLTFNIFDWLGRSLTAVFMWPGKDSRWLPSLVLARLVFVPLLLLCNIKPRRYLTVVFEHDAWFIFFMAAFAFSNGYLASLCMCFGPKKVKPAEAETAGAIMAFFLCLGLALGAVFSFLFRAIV
CYP2D6: Cytochrome P450 2D6 (CYP2D6, Homo sapiens, UniProt P10635)
SIRT3: NAD-dependent protein deacetylase sirtuin-3, mitochondrial (SIRT3, Homo sapiens, UniProt Q9NTG7)
Sequence of UniProt Q9NTG7 (whole entry, looked up): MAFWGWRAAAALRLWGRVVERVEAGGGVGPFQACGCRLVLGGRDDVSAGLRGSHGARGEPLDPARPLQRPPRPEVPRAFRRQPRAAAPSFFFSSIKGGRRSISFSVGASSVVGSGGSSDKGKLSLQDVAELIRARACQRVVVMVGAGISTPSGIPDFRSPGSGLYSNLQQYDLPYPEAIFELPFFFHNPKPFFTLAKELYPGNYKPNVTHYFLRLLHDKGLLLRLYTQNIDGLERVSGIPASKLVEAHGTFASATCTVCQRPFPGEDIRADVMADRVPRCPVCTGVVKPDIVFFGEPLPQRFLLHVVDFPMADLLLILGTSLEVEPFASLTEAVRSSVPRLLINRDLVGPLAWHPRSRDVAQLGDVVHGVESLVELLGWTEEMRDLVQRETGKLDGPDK
Sequence of UniProt Q7Z2W7 (whole entry, looked up): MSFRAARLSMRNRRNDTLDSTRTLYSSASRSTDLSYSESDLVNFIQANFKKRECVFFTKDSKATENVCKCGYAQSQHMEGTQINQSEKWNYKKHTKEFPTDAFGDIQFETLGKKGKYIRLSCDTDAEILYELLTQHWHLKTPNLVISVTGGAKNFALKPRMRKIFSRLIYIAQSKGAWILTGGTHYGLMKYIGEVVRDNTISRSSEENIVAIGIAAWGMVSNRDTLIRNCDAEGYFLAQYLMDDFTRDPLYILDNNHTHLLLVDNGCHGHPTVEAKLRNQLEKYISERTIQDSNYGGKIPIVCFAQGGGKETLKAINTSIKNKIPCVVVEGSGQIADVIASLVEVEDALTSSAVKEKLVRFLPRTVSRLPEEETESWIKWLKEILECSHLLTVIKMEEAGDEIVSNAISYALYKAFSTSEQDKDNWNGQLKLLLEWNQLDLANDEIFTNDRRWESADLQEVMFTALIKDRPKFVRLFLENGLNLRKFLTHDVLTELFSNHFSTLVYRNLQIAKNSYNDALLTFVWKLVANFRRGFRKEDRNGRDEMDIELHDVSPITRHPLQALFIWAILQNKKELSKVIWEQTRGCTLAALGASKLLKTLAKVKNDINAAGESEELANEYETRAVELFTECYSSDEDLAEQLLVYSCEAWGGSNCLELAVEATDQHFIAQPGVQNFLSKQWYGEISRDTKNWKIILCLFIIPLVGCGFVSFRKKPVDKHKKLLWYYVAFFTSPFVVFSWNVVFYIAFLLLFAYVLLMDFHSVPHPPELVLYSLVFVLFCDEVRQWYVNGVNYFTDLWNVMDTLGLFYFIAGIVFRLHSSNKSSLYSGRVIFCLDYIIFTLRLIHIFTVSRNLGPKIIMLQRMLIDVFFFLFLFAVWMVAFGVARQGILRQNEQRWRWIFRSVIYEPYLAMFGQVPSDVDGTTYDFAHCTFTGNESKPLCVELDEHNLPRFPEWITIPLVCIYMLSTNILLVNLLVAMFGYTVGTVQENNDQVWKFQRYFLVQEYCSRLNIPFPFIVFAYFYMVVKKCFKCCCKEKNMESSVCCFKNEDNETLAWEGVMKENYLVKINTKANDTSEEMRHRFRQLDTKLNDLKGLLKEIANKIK

CC(=O)Oc1cc(-c2coc3cc(OC(C)=O)c(OC(C)=O)c(OC(C)=O)c3c2=O)cc(OC(C)=O)c1OC(C)=O
IC50 (CDC7 with DBF4; enzyme activity, inhibitor, ADP-Glo luminescence; added: ATP 12.5 µM): 1.01 ± 0.04 µM

COc1cc2nc(NCc3ccc(CNCCCNC4CCCCC4)cc3)nc(NC3CCNCC3)c2cc1OC
IC50 (CXCR4; ligand displacement, radioligand; cell membranes): 0.0315 µM

C#Cc1ccc2c(C)c(-c3ccccc3)c(=O)oc2c1
IC50 (CYP1A2; enzyme activity, inhibitor; 6 min, pH 7.6): 5.8 µM

COc1ccc(-c2cc(=O)c3c(OC)c([C@@H]4O[C@H](C(=O)Nc5ccncc5)[C@@H](O)[C@H](O)[C@H]4O)c(OC)cc3o2)cc1OC
IC50 (GSK3B; enzyme activity, inhibitor, ADP detection): 35.6 µM

Cc1cc(Cn2cnc3c2C[C@@H](C(=O)O)N(C(=O)C(c2ccccc2)c2ccccc2)C3)ccc1N(C)C
IC50 (Type-2 angiotensin II receptor (Rattus norvegicus, UniProt P35351); ligand displacement, radioligand; pH 7.4, cell membranes): 0.02 µM

CN(C)c1ccc(C(=C2C=CC(=[N+](C)C)C=C2)c2ccc(N(C)C)cc2)cc1
IC50 (CDC7 with DBF4; enzyme activity, inhibitor, ADP-Glo luminescence; added: ATP 12.5 µM): 12.8 ± 2.57 µM

O=c1c2ccccc2nc(NN=Cc2ccc(O)cc2)n1-c1ccccc1
IC50 (PARP1; enzyme activity): 0.0449 µM

O=C(NC1CCCCC1)OCc1cn(Cc2c(F)cccc2F)nn1
IC50 (FAAH; enzyme activity, inhibitor, fluorescence; cell membranes): 0.812 µM

O=C1NC(=O)C(c2ccccc2)(c2ccccc2)N1
IC50 (SCN8A (Homo sapiens, UniProt Q9UQD0); ion current, inhibitor, automated patch clamp; held at V0.5 inactivation for 10 s): 13 µM

Nc1nc(Nc2ccc3c(c2)CC[C@@H](N2CCCC2)CC3)nn1-c1cc2c(nn1)-c1ccccc1CCC2
IC50 (DNA topoisomerase 1 (TOP1, Homo sapiens, UniProt P11387); enzyme activity, inhibitor): 75.8 µM

Cc1ccccc1C(C(=O)NC1CCCCC1)N(C(=O)CNc1ccc(F)nc1)c1cccc(F)c1 (centres unmarked)
IC50 (IDH1 (Homo sapiens, UniProt O75874, R132H); enzyme activity, inhibitor; racemic compound, added: α-ketoglutarate): 1.4 µM and 1.39 µM

O=C(NC1CCCCC1)OCc1cn(Cc2ccccc2Cl)nn1
IC50 (FAAH; enzyme activity, inhibitor, fluorescence; cell membranes): 1.07 µM

C#Cc1ccc2c(C(F)(F)F)cc(=O)oc2c1
IC50 (CYP1A2; enzyme activity, inhibitor; 6 min, pH 7.6): 2.69 µM

O=c1[nH]c2ccccc2n1C1CCN(CCCC(c2ccc(F)cc2)c2ccc(F)cc2)CC1
IC50 (ABCC1 (Homo sapiens, UniProt P33527); efflux, inhibitor, flow cytometry; SupT1 cells overexpressing ABCC1; added: DiIC1(5) 100 nM): 6 ± 2.1 µM

Cc1nc2ccc(NC(=O)CCNC(=O)CCCc3ccc(CC(C(=O)O)C(=O)O)cc3)cc2s1
IC50 (LDHB; inhibitor, NADH fluorescence; NADH competition, added: 1440 µM pyruvate, 40 µM NADH): 3.6 ± 0.4 µM

COc1ccc(-c2csc(NN=Cc3ccccc3)n2)cc1
IC50 (MAPT (Homo sapiens, UniProt P10636); ligand displacement, radioligand): > 10 µM

CC(C)C1=CC2=C(CC1)[C@@]1(C)CCC[C@@](C)(C(=O)O)[C@@H]1CC2
IC50 (CA9 (Homo sapiens, UniProt Q16790); enzyme activity, inhibitor, stopped-flow; pH 7.4): 0.29 µM

CCOc1cc2ncc(C#N)c(Nc3ccc(OCc4ccccn4)c(Cl)c3)c2cc1NC(=O)/C=C/CN(C)C
IC50 (SLC29A1; transporter uptake, inhibitor, radiometric): 8.5 µM

NC(=O)c1cccc2c1OC[C@@H](CN1CCN(c3ncccn3)CC1)O2
IC50 (PARP1): > 5 µM

COc1cc(/C=C/C(O)=C/C(=O)/C=C/c2ccc(O)cc2)ccc1O
IC50 (Hsd3b1 (Rattus norvegicus, UniProt P22071); enzyme activity, inhibitor; rat testicular microsomes; lower bound from 100 µM screen, added: pregnenolone): < 100 µM

CNC(=O)NC
IC50 (Urea transporter 2 (Rattus norvegicus, UniProt Q62668); urea transport, inhibitor; MDCK expressing rat UT-A1; 20 min): 22000 ± 1000 µM

O=c1[nH]c(=O)c2cc(S(=O)(=O)Nc3ccc(-c4ccncc4)cc3)ccc2[nH]1
IC50 (N-acyl-phosphatidylethanolamine-hydrolyzing phospholipase D (Homo sapiens, UniProt Q6IQ20); enzyme activity, inhibitor): 33.7 µM and ~34 µM

O=C(O)c1ccc(S(=O)(=O)N(Cc2ccc(OC(F)(F)F)cc2)c2ncc(C(F)(F)F)cc2Cl)cc1
IC50 (TRPM8 (Homo sapiens, UniProt Q7Z2W7); calcium signal, antagonist, fluorescence): 0.00296 µM and 0.003 µM

CC(C)CN(CC(C)C)c1nc(NCCO)nc2c(N(CC(C)C)CC(C)C)nc(NCCO)nc12
IC50 (SLC29A1; [3H]uridine uptake; PK-15 expressing SLC29A1; 2 min, pH 7.4, added: [3H]uridine 0.2 µM): 5.95 µM

CN1CCN(CCCN2c3ccccc3Sc3ccc(C(F)(F)F)cc32)CC1
IC50 (USP2 (Homo sapiens, UniProt O75604)): > 114 µM

CCC1(c2ccc(C)cc2)C(=O)N(C(=O)OC(C)C)N1C(=O)OC(C)C (centres unmarked)
IC50 (Palmitoyl-protein thioesterase ABHD10, mitochondrial (Mus musculus, UniProt Q6PE15); enzyme activity, inhibitor, gel-based ABPP in situ; Neuro2A; 2 h): 0.021 µM

COc1ccc([C@H](CC(=O)O)N2CCN(CCCc3ccc4c(n3)NCCC4)C2=O)cn1
IC50 (Integrin alpha-V/beta-3 (Homo sapiens, UniProt P05106+P06756); vitronectin binding, inhibitor, ELISA): 0.0028 ± 0.0034 µM

c1nc2c(NCCc3ccc(CNCCCNC4CCCCC4)cc3)nc(N3CCNCC3)nc2[nH]1
IC50 (CXCR4; ligand displacement, radioligand; cell membranes): 0.0451 µM

CC(C)NCc1ccc(C[C@@H]2NC(=O)[C@@H](N(C)C(=O)c3ccc4ccccc4c3)NC(=O)[C@H](Cc3ccccc3)NC(=O)[C@H](N)CSSC[C@@H](C(=O)N[C@@H](Cc3ccc4ccccc4c3)C(N)=O)NC(=O)[C@H](Cc3ccccc3)NC2=O)cc1
IC50 (SSTR5 (Homo sapiens, UniProt P35346); ligand displacement, radioligand; cell membranes): 0.181 µM

CNC(=O)[C@@]12C[C@@H]1[C@@H](n1cnc3c(NC)nc(C#C[c-]4cccc4)nc31)[C@H](O)[C@@H]2O.[Fe+2].c1cc[cH-]c1
IC50 (Adenosine receptor A3 (Mus musculus, UniProt Q61618); cAMP): 0.00314 µM

CC1=C(COc2cccc(C(F)(F)F)c2)C(=O)c2ccccc2C1=O
IC50 (TXNRD1 (Homo sapiens, UniProt Q16881); enzyme activity, inhibitor; pH 7.4, with preincubation): 3 µM

CCCCCCCOC(=O)c1ccc(O)cc1
IC50 (FAAH; enzyme activity, inhibitor, fluorescence; with preincubation): 0.15 µM

O=c1cc(N2CCOCC2)oc2c(OCc3ccccc3)cccc12
IC50 (PIK3CB (Homo sapiens, UniProt P42338); enzyme activity, inhibitor): 0.18 µM

O=C(O)[C@H]1NCC[C@@H]1[C@H](C(=O)O)c1ccccc1
IC50 (AMPA receptor, rat; binding; cortical synaptosomes; added: [3H]-AMPA): > 100 µM

COC(=O)C(Cc1ccc(CCCC(=O)NCCC(=O)Nc2ccc3nc(C)sc3c2)cc1)C(=O)O (centres unmarked)
IC50 (LDHB; inhibitor, NADH fluorescence; pyruvate competition, added: 150 µM NADH, 200 µM pyruvate): 106 ± 11 µM

O=C(O)C(Cc1ccccc1)[C@@H]1CCN[C@H]1C(=O)O (relative stereo)
IC50 (AMPA receptor, rat; binding; cortical synaptosomes; added: [3H]-AMPA): > 100 µM

CCCN1CCC(c2cccc(S(C)(=O)=O)c2)CC1
IC50 (CYP2D6; enzyme activity, inhibitor; human, liver microsomes; pH 7.4): 35 µM

NC(=O)c1cccc2c1OCO2
IC50 (PARP1): > 2.5 µM and ≥ 2.5 µM

CCC(NC(=O)[C@H](CC(C)C)NC(=O)OCc1ccccc1)C(=O)C(=O)NCc1cc(OC)cc(OC)c1 (some centres unmarked)
IC50 (Calpain-2 catalytic subunit (Capn2, Mus musculus, UniProt O08529); enzyme activity, inhibitor; mouse pons-cerebellum membranes; added: calcium 2 mM): 0.044 µM

N#Cc1cnc2cnc(NCc3cccnc3)cc2c1Nc1ccc(F)c(Cl)c1
IC50 (PSMB5 (Homo sapiens, UniProt P28074); enzyme activity; added: Suc-LLVY-AMC substrate, ATP): > 30 µM

COc1ccc(-c2nn(-c3ccccc3)cc2C2CC(c3ccc(Br)cc3)=NN2C(=O)CCC(=O)O)cc1 (centres unmarked)
IC50 (RPA1 (Homo sapiens, UniProt P27694); protein-nucleic acid interaction, inhibitor, mobility shift): > 100 µM

CN1CCC2(CC1)c1ccccc1N(Cc1ccc(C(=O)NO)s1)C2c1cccc(Cl)c1 (centres unmarked)
IC50 (Histone deacetylase 8 (Schistosoma mansoni, UniProt A5H660); enzyme activity, inhibitor, Fluor-de-Lys; varied substrate concentration, added: Fluor-de-Lys substrate 50 µM): 0.37 ± 0.13 µM

CCC(C)Oc1nc(N)nc(N)c1C#N (centres unmarked)
IC50 (CDK2 (Homo sapiens, UniProt P24941); enzyme activity, inhibitor): 13 µM and 10 to 20 µM and 9.6 µM

COc1cccc2cc(-c3nnc(SCC(=O)Nc4ccc(Br)cc4)n3-c3ccccc3)oc12
IC50 (fungal tyrosinase; enzyme activity, inhibitor, dopachrome absorbance; pH 6.8, 37 °C, added: L-tyrosine substrate): 1.08 ± 4.09 µM

Cl.Cl.Cl.Cl.Cl.Cl.N.N.N.N.N.N.N.N.N.N.N.N.N.N.[O-2].[O-2].[Ru+3].[Ru+3].[Ru+4]
IC50 (PIEZO2 (Homo sapiens, UniProt Q9H5I5); transporter uptake, flow cytometry): 115 µM

COc1cc2ncnc(Nc3ccc(F)c(Cl)c3)c2cc1NC(=O)/C=C/CN1CCCCC1
IC50 (CYP2D6; poziotinib M2 formation, inhibitor; 50 min, pH 7.4): 0.11 µM

COc1ccc(-c2cc(=O)c3c(OC)c([C@@H]4O[C@H](C(=O)N[C@H](C)C(F)(F)F)[C@@H](O)[C@H](O)[C@H]4O)c(OC)cc3o2)cc1OC
IC50 (GSK3B; enzyme activity, inhibitor, ADP detection): 2.3 µM

Cn1c(=O)c(=O)n(C)c2cc(S(=O)(=O)Nc3ccc(F)cc3)ccc21
IC50 (DPP4 (Homo sapiens, UniProt P27487); enzyme activity, inhibitor, fluorescence): 0.0007 µM

O=C(Nc1cc(F)c(Cl)c(F)c1)c1cc(S(=O)(=O)N2CCOCC2)c(Cl)cc1Cl
IC50 (LPAR4 (Homo sapiens, UniProt Q99677); Ca2+ mobilization, antagonist; CHO; added: LPA at EC50): > 100 µM

Cn1c(S)nc2ccccc21
IC50 (mbtI (Mycobacterium tuberculosis, UniProt P9WFX1); enzyme activity, inhibitor, continuous fluorescence; added: chorismate): 83.9 ± 4.7 µM

CCCCCCCCCCCCCC(=S)NCCCCC(NC(=O)OCc1ccccc1)C(=O)Nc1ccccc1 (centres unmarked)
IC50 (SIRT3; deacetylase activity, inhibitor; no pre-incubation, added: H3K9-Ac peptide substrate): 77 µM

CS(=O)(=O)OC[C@@H]1COc2c(cccc2C(N)=O)O1
IC50 (PARP1): > 5 µM

O=C(CSc1nc2ccccc2c(=O)n1-c1ccccc1)Nc1ccc(S(=O)(=O)NC(=S)Nc2ccccc2)cc1
IC50 (PARP1; enzyme activity, inhibitor, absorbance): 0.0789 µM

CNc1ccc(C(=O)OCc2ccccc2)cc1
IC50 (FAAH; enzyme activity, inhibitor, fluorescence; with preincubation): 18.2 µM

O=C(NCc1ccc(F)cc1)C1CCN(S(=O)(=O)c2cc(Cl)cc(Cl)c2)CC1
IC50 (Na(+)/citrate cotransporter (Homo sapiens, UniProt Q86YT5); citrate uptake, inhibitor; HepG2; 30 min preincubation, washout before uptake): 0.197 ± 0.051 µM

Cc1ccc(C(=O)Nc2ccc(S(=O)(=O)O)c3cc(S(=O)(=O)O)cc(S(=O)(=O)O)c23)cc1NC(=O)c1cccc(NC(=O)Nc2cccc(C(=O)Nc3cc(C(=O)Nc4ccc(S(=O)(=O)O)c5cc(S(=O)(=O)O)cc(S(=O)(=O)O)c45)ccc3C)c2)c1
IC50 (SIRT3; enzyme activity, inhibitor, HPLC): 5 to 75 µM
